# Measurements of several laboratories.
# Every numbered part comes from another study and shows a few of its results, in no order.
# Chain of UniProt Q13153 (whole entry, looked up): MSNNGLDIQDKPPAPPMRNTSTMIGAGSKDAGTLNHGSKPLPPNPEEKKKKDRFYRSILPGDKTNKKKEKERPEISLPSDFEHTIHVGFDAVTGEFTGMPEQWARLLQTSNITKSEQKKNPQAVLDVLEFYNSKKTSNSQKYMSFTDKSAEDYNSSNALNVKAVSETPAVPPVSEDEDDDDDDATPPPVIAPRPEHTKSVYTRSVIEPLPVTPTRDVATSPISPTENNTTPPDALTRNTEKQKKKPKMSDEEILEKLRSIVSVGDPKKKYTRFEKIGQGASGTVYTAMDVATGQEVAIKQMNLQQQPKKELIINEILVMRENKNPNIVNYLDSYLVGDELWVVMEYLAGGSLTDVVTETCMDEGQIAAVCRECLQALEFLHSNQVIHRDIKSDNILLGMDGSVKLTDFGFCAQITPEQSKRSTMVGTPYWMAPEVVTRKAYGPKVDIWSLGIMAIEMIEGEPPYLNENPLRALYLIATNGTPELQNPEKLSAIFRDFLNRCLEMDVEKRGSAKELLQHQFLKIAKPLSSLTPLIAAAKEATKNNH
# Chain of UniProt P52564 (whole entry, looked up): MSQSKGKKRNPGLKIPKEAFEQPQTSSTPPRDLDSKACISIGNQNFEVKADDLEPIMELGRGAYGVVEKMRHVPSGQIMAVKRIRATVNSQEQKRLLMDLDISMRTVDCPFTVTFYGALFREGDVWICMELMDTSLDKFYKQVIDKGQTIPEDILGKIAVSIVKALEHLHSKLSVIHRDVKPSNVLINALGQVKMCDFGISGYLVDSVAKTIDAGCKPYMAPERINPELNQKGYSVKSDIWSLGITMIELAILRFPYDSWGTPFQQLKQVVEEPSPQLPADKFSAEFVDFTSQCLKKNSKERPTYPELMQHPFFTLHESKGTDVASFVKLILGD
# Chain of UniProt O14730 (whole entry, looked up): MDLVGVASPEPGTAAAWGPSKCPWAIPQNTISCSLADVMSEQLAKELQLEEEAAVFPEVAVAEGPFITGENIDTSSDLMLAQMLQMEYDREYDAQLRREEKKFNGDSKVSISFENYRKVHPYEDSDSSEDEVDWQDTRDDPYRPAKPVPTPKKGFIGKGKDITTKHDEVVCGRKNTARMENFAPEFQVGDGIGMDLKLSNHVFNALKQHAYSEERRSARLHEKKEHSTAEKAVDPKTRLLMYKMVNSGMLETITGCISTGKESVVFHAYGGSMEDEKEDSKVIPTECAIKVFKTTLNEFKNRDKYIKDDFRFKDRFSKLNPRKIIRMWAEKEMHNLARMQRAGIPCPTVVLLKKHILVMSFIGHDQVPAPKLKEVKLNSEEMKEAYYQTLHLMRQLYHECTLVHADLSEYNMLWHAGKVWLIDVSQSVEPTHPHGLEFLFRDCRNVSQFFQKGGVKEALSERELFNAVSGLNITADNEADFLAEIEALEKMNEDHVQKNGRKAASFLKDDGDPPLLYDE
# Chain of UniProt P10721 (whole entry, unmodified, looked up): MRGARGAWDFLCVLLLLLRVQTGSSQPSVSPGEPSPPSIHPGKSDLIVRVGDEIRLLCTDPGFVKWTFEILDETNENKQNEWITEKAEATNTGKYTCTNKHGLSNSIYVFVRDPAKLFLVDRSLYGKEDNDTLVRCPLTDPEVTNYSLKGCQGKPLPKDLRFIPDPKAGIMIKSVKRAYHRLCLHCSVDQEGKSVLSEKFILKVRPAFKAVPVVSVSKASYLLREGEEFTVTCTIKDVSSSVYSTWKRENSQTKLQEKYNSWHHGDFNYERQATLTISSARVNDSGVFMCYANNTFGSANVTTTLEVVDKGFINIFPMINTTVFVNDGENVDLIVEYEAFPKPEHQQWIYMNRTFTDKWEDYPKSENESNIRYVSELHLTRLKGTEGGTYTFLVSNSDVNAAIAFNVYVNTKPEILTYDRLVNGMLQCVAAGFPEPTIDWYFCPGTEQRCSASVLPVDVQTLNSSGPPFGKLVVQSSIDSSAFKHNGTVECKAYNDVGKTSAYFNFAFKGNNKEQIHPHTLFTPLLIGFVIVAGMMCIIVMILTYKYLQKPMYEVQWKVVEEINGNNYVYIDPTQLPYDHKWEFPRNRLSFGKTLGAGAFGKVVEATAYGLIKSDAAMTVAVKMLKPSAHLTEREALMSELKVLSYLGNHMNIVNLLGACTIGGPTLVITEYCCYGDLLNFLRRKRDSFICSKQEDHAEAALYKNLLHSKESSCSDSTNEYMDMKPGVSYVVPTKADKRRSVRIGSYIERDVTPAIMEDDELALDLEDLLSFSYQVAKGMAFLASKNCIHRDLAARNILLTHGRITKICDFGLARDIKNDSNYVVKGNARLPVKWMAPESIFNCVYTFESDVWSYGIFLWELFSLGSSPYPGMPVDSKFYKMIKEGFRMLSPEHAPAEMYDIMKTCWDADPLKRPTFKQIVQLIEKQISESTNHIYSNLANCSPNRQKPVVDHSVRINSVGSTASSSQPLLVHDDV
# Chain of UniProt Q13557 (whole entry, looked up): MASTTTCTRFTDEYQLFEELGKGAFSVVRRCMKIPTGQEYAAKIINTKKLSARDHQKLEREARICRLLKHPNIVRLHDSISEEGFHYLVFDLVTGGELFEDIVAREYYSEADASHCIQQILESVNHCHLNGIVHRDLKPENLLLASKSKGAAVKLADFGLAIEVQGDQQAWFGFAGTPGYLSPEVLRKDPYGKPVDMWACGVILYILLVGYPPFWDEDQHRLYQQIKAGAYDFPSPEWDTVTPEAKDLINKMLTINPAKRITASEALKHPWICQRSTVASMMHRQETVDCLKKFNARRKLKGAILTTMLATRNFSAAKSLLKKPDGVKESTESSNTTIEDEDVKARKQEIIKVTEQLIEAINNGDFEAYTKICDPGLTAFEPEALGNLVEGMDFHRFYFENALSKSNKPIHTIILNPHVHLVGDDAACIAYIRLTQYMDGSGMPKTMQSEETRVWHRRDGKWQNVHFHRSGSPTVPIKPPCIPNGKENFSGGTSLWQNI

# Sample 1 — cell line: mouse MPNST tumor cells; method: high-content immunofluorescence imaging; item: nuclear SOX9; tested at: 10 µM; time: 12 h; notes: mean of 2 replicates; reference: DMSO control; reading: higher = more nuclear SOX9
SMILES,nuclear SOX9 intensity
Cc1ccc(/C=N/NC(=O)c2ccccc2Oc2ccccc2)o1,111 % of DMSO
Cc1cc(C(C)(C)CC(C)(C)C)ccc1OCCOCC[N+](C)(C)Cc1ccccc1,125 % of DMSO
CC[C@H]1OC(=O)[C@H](C)[C@@H](O[C@H]2C[C@@](C)(OC)[C@@H](O)[C@H](C)O2)[C@H](C)[C@@H](O[C@@H]2O[C@H](C)C[C@H](N(C)C)[C@H]2O)[C@](C)(O)C[C@@H](C)C(=O)[C@H](C)[C@@H](O)[C@]1(C)O,109 % of DMSO
O=C1OC(CN2CCOCC2)CN1/N=C/c1ccc([N+](=O)[O-])o1 (centres unmarked),104 % of DMSO
CCOC(=O)c1ccc(NC2CCCCC2)c(N)c1,89.6 % of DMSO
C=C1C(=O)O[C@H]2[C@H]1CC/C(C)=C/CC[C@@]1(C)O[C@@H]21,148 % of DMSO

# Sample 2 — Compound: C=CCc1ccc(O)c(-c2cc(CC=C)ccc2O)c1; effect on: chloride current; method: whole-cell voltage clamp
# ANO1 del476-501/R561A: Anoctamin-1 (ANO1, Homo sapiens, UniProt Q5XXA6, del476-501/R561A)
# Chain of UniProt Q5XXA6 (whole entry, unmodified, looked up): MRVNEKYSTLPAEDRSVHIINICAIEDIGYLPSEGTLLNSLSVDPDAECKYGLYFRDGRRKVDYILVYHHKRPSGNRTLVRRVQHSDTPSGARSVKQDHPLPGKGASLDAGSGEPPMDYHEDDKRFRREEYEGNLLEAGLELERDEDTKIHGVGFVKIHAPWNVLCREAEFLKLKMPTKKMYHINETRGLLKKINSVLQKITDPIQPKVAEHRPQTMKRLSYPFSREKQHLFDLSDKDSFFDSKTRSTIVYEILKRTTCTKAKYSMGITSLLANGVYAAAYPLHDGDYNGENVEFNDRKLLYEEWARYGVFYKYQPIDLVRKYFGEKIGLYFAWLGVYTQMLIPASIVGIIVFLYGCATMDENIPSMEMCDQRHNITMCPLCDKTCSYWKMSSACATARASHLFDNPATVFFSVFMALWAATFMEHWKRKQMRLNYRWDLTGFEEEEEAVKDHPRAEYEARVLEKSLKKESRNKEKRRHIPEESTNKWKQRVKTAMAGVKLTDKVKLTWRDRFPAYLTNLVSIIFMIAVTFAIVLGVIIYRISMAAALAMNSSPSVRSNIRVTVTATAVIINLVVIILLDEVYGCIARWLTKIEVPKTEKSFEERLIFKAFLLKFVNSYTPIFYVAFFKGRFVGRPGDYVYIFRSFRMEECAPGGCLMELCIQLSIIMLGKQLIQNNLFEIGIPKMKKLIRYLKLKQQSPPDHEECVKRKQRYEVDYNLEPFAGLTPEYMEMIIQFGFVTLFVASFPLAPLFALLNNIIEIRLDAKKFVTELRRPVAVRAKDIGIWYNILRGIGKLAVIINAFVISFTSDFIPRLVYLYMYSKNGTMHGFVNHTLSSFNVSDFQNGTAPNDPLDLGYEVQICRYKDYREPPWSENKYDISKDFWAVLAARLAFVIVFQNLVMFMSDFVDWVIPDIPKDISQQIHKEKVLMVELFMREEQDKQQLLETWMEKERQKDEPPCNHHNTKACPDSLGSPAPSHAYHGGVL
# ANO1 del476-501/E649I: Anoctamin-1 (ANO1, Homo sapiens, UniProt Q5XXA6, del476-501/E649I)
target,assay,conditions,IC50
"Anoctamin-1 (ANO1, Homo sapiens, UniProt Q5XXA6, del476-501/F627A)",,membrane voltage 80 mV,26.2 µM
"Anoctamin-1 (ANO1, Homo sapiens, UniProt Q5XXA6, del476-501/E650A)",,membrane voltage -100 mV,37.7 µM
"Anoctamin-1 (ANO1, Homo sapiens, UniProt Q5XXA6, del476-501/F623A)",,membrane voltage 60 mV,23.2 µM
ANO1 del476-501/R561A,,membrane voltage 40 mV,23 µM
ANO1 del476-501/E649I,inhibitor,E623I mutant at 20 mV,132 µM
ANO1 del476-501/E649I,inhibitor,E623I mutant at -60 mV,134 µM
"Anoctamin-1 (ANO1, Homo sapiens, UniProt Q5XXA6, del476-501/F803A)",,membrane voltage -100 mV,84 µM
ANO1 del476-501/R561A,,membrane voltage 60 mV,24.7 µM
"Anoctamin-1 (ANO1, Homo sapiens, UniProt Q5XXA6, del476-501/K629D)",inhibitor,mutant K603D,240 µM
"Anoctamin-1 (ANO1, Homo sapiens, UniProt Q5XXA6, del476-501/R541D)",inhibitor,R515D mutant at -20 mV,134 µM
"Anoctamin-1 (ANO1, Homo sapiens, UniProt Q5XXA6, del476-501/M544I)",inhibitor,100 mV holding voltage,176 µM

# Sample 3 — effect on: enzyme activity; mode: inhibitor; tested at: 0.5 µM; reference: control
# Target: Ephrin type-B receptor 3 (EPHB3, Homo sapiens, UniProt P54753)
# Chain of UniProt P54753 (whole entry, looked up): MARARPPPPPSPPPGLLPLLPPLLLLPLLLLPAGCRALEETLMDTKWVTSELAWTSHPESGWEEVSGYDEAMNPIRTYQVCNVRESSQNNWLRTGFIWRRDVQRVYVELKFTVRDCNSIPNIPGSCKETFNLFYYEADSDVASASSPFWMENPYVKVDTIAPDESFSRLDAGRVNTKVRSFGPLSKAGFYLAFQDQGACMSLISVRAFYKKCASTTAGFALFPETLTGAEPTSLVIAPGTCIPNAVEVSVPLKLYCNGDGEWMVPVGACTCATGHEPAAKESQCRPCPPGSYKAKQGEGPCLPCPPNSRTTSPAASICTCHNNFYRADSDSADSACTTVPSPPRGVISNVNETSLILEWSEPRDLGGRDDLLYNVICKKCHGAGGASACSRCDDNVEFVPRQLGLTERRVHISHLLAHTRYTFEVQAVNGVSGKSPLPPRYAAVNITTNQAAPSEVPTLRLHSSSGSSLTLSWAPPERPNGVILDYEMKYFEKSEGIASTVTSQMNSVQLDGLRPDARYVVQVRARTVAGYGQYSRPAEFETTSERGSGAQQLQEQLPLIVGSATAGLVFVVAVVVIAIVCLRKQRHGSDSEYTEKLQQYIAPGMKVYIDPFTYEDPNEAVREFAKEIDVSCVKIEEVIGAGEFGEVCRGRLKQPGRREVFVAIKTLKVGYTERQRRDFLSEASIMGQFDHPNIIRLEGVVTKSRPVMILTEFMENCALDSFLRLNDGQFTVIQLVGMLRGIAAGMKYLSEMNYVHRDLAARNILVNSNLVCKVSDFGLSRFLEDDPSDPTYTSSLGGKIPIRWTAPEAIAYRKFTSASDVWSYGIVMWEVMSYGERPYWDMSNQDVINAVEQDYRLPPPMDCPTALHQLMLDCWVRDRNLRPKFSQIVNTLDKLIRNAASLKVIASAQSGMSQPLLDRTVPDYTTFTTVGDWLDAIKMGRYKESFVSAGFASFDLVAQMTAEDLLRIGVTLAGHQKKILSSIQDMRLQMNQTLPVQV
SMILES,remaining activity [%]
Fc1ccc(-c2nc3n(c2-c2ccncc2)CCS3)cc1,96.1
O=C1Cc2c([nH]c3ccc([N+](=O)[O-])cc23)-c2ccccc2N1,103
Oc1ccc(Nc2nc(-c3ccc(Cl)cc3)cs2)cc1,103
Nc1nc(Nc2ccc(S(N)(=O)=O)cc2)nn1C(=O)c1c(F)cccc1F,98.5
N#CC(=C(N)Sc1ccc(N)cc1)c1ccccc1C(F)(F)F,96.7
COc1cc(Nc2c(C#N)cnc3cc(OCCCN4CCN(C)CC4)c(OC)cc23)c(Cl)cc1Cl,49.4
CC(C)(C)n1nc(Cc2cccc3ccccc23)c2c(N)ncnc21,45.2
CCc1[nH]c(-c2ccc(OC)cc2)nc1-c1ccncc1,107

# Sample 4 — method: competition with immobilised ligand; tested at: 1 µM
# SMILES: CC(=O)N1CCC(c2ccc(C(=O)NC3=NCCN3)cc2C(F)(F)F)CC1
target,assay,remaining binding [%]
"Cyclin-dependent kinase 15 (CDK15, Homo sapiens, UniProt Q96Q40)",cell-free assay,100
"Serine/threonine-protein kinase TNNI3K (TNNI3K, Homo sapiens, UniProt Q59H18)",cell-free assay,98
"cAMP-dependent protein kinase catalytic subunit PRKX (PRKX, Homo sapiens, UniProt P51817)",cell-free assay,100
"Calcium/calmodulin-dependent protein kinase type IV (CAMK4, Homo sapiens, UniProt Q16566)",cell-free assay,92
"Receptor tyrosine-protein kinase erbB-4 (ERBB4, Homo sapiens, UniProt Q15303)",cell-free assay,100
"Receptor-interacting serine/threonine-protein kinase 4 (RIPK4, Homo sapiens, UniProt P57078)",cell-free assay,64
"Dual specificity protein kinase CLK2 (CLK2, Homo sapiens, UniProt P49760)",cell-free assay,91
"Wee1-like protein kinase 2 (WEE2, Homo sapiens, UniProt P0C1S8)",cell-free assay,100
"Cyclin-dependent kinase 2 (CDK2, Homo sapiens, UniProt P24941)",cell-free assay,100
"Myosin-IIIa (MYO3A, Homo sapiens, UniProt Q8NEV4)",binding,100
"Calcium/calmodulin-dependent protein kinase type II subunit delta (CAMK2D, Homo sapiens, UniProt Q13557)",cell-free assay,100
"Phosphatidylinositol 3-kinase catalytic subunit type 3 (PIK3C3, Homo sapiens, UniProt Q8NEB9)",cell-free assay,88
"Dual specificity mitogen-activated protein kinase kinase 6 (MAP2K6, Homo sapiens, UniProt P52564)",cell-free assay,100
"Serine/threonine-protein kinase Nek6 (NEK6, Homo sapiens, UniProt Q9HC98)",cell-free assay,100
"MAP kinase-activated protein kinase 2 (MAPKAPK2, Homo sapiens, UniProt P49137)",cell-free assay,100
"Serine/threonine-protein kinase DCLK2 (DCLK2, Homo sapiens, UniProt Q8N568)",cell-free assay,88
"Interleukin-1 receptor-associated kinase 3 (IRAK3, Homo sapiens, UniProt Q9Y616)",cell-free assay,100
"Mast/stem cell growth factor receptor Kit (KIT, Homo sapiens, UniProt P10721, D816H)",cell-free assay,97
"Serine/threonine-protein kinase RIO3 (RIOK3, Homo sapiens, UniProt O14730)",cell-free assay,98
"Leukocyte tyrosine kinase receptor (LTK, Homo sapiens, UniProt P29376)",cell-free assay,100
"cGMP-dependent protein kinase 2 (PRKG2, Homo sapiens, UniProt Q13237)",cell-free assay,100
"Serine/threonine-protein kinase WNK4 (WNK4, Homo sapiens, UniProt Q96J92)",cell-free assay,100
"Tyrosine-protein kinase Lyn (LYN, Homo sapiens, UniProt P07948)",cell-free assay,94
"Serine/threonine-protein kinase PAK 1 (PAK1, Homo sapiens, UniProt Q13153)",cell-free assay,98
"Tyrosine-protein kinase ABL1, phosphorylated (ABL1, Homo sapiens, UniProt P00519)",cell-free assay,83

# A few entries again (sample 4):
target,assay,remaining binding [%]
"Receptor tyrosine-protein kinase erbB-4 (ERBB4, Homo sapiens, UniProt Q15303)",cell-free assay,100
"Receptor-interacting serine/threonine-protein kinase 4 (RIPK4, Homo sapiens, UniProt P57078)",cell-free assay,64
"Dual specificity protein kinase CLK2 (CLK2, Homo sapiens, UniProt P49760)",cell-free assay,91
"Wee1-like protein kinase 2 (WEE2, Homo sapiens, UniProt P0C1S8)",cell-free assay,100
"Cyclin-dependent kinase 2 (CDK2, Homo sapiens, UniProt P24941)",cell-free assay,100
"Myosin-IIIa (MYO3A, Homo sapiens, UniProt Q8NEV4)",binding,100
"Calcium/calmodulin-dependent protein kinase type II subunit delta (CAMK2D, Homo sapiens, UniProt Q13557)",cell-free assay,100
